Measurements pooled from the literature.
A part holds a random share of what one study measured.

Sample 1 — technique: EMSA with sequencing; form: double-stranded DNA, one strand shown; medium: in vitro; tested at: 10 and 20 nM; relative to: negative control set to 0; reading: higher = stronger binding; endpoint: normalised bound fraction
Target: Hepatocyte nuclear factor 3-alpha (Foxa1, Mus musculus, UniProt P35582, residues 1-468, full length assumed)
Sequence of UniProt P35582 (whole entry, looked up): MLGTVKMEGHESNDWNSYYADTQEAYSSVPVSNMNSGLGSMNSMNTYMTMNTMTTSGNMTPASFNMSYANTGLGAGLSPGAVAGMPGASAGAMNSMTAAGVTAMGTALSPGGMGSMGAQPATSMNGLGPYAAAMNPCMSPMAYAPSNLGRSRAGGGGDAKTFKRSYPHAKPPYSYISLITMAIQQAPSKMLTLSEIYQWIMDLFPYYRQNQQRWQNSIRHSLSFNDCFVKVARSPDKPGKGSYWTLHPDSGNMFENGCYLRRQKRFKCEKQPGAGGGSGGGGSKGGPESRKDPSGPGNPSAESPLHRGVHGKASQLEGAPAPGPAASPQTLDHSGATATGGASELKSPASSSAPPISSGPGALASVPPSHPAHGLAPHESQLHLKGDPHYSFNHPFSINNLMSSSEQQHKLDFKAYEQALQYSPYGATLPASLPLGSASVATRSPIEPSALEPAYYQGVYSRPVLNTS
Notes: whole designed probe, mean of two concentrations, ends assumed
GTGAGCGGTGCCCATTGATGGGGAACGTTGCCATAGCTCTGCTGAATGATCATTTGTTGGATTCCATGAATCTCAAAAAAATGAAAGGATCTCTCTTTAGGTGTGTCTGGGGCTATCAAAGTAAACAAGTCAGATGAATTATTGATAGGCTTTGGATCAATGAAATGCCACTGGAATGACAAATGATAAGCACAGTAAAACTGTCACAATCCTTATTCCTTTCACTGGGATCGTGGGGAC: 0.416 ratio
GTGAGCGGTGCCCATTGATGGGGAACATTTTTCATACTTTATGCAACAATTTGTTATGAGATACCAAAGCTGAAGAATGAGGTGTTTGACCATATTCAAAGACCACATGTGTCAGGACTGTTTACATTTCTGAAAGTACTTAGGGCAATCACAGGATGAAAGCAGTGTGTACTAAATCCTCTGTCCACAGAATTCTGCAAATATTATGTGTCTTGAGGGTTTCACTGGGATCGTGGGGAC: 0.37 ratio
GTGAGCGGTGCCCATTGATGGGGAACTAAGCAAATACCATGACATAAATTTCTTCTGTTGACCACACTGGCTGTTTAACACAGCTCTAGTGACTTCATGGGGCTGAATGAGTTTTCGATGTTTACTTAGCTGGTGGGCCTAATCAGTGTCATCATCTTTTTCATATGACCAGTGAACAGTCCATAGCTTGCTACTCAAAGCGTGATCCACAGGCCATCCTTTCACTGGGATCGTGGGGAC: 0.502 ratio
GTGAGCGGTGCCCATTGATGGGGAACAATCCAGCTACCTATCTTCAGTTCCTTGGCCTTCAGCTGGCAGTGAAACAGACACATCAGCTTTAAGACTGGCAGCCAAATAGTTAACGATCTGTAAACATACATAGAGAGTTCCTGTTCATTACGCAAGAAACAGACTGGATGAAAGCCCTTCCATAAAGAACCCTTTAGGTGATGATGCTAAAATTATTTTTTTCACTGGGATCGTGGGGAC: 0.156 ratio
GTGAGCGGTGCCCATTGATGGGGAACATCTTCCCCCTCTTCCTTGCCCCACCAGCTCACCTACGGGGGTTATTTGCACAAAGGAAAATAAATAAAGCCGGCATTCGTTAACGCAGTTCTGGCGCAAACTGCTGTTTGCTCTGGATGAATCATGGTCCTTTGGCGACGCCAGGCTCCGGGAGAGCAAAGCACCGTGTCAGGGCCATGATCCGGGGTGGCCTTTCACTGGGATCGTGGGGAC: 0.381 ratio
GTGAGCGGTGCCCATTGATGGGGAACAAAACCAAAAACCAAAGCTTATTCACTCTTAATCTAAGTAAGCAAGTTTGGATAGACCCCCACTAAGTATGAGCATAGTCTTTAATGCTACAATGTAATCTAATATACTTATGTCATATAAACTACTTTATTATTCTGGCAAGTTGGGAACCATTGATATAGGATTTGTGAGACTCAATAATAATAGACTTTTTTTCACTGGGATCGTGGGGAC: 0.0167 ratio

Sample 2 — technique: RNA Bind-n-Seq; form: RNA; medium: in vitro; tested at: not given; relative to: input RNA pool; reading: higher = stronger binding; endpoint: bound/input enrichment
Target: RING finger protein unkempt homolog, zinc fingers 1-6, GST-SBP tag (UNK, Homo sapiens, UniProt Q9C0B0, residues 30-357)
Sequence of UniProt Q9C0B0 (30-357, looked up): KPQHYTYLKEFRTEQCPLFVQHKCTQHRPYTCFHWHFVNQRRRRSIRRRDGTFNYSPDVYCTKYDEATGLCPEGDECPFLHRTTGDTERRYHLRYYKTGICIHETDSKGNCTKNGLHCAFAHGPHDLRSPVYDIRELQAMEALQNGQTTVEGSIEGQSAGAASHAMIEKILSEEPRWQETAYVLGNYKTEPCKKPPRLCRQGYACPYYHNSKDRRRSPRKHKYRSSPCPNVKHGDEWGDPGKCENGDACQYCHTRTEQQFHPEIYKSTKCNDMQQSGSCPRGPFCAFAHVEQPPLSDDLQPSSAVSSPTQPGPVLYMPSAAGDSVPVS
Notes: RNA with constant flanks, human-mouse chimeric sites, ends assumed
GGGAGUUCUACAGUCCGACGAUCCUGGCACUCUAUCAGAUAUAUUAAUUUUUUAAUGUAGAUGUAAUUUUAAAAAUGAAUGGCUAGUUUACACGUUUAACUAGGCUCUUACUAUAUAUGUGUACAUAUGUAUAUAUAUAUAUACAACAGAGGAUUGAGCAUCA: 2.23 ratio
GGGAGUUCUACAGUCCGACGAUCCUGAAAAACACAGAUAUCAAAGUUGUUGAUUUUGGAAGUGCAACGUAUGAUGAUGAACAUCACAGUACUUUGGUGUCUACCCGGCACUACAGAGCUCCAGAGGUCAUUUUGGCUUUAGGUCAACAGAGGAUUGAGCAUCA: 0.419 ratio
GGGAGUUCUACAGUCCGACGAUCGCAGGAUCUUCUAAGUACCAGUGGGACAUUAUGAAAUCCCUUGGGCUCUCUGAUGACGACAUAGUGAAGUUUUCUGAAGCAGAGCACUGGCUUGAUUAUUUCCCGCCACUGGCCGUUCAGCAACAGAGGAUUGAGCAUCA: 0.135 ratio
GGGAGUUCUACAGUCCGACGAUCCGCUUGGAUGAGGCGGGUGUUACUGAUGAAGUGCUGGAUUCUGCCAUGCAAGCCUUCCUUCUGGAGGUCAUUGUUAAACAUGGGGAGCCGGCACCUUAUUUAUGUAACAAAGAUCCGUUUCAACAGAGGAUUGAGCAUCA: 0.101 ratio
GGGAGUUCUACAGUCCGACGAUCAAAGCCCUUGAAGAAAAAAAAAAUUCAAACAGAUUUGACAAGGGUAGCCAGCUUGGAGUCUAGCAACUUGCCAAUGUGUUUACCAAUCUGGGGGCUUGUUUUUCUUUUCUUCUUUCAAAUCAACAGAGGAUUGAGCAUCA: 0.298 ratio
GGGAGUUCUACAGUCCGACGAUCGUGUCCUUUCAACUUAAUAAAUCACUGAGGCAUCUCUACUGUUCUGUUAAAAUCAGGACUGUAGCGCUGUGUCACCACAUGAGAGUUCAGAAGCAGCCUUUCUGUGGAGGGUGGGAAUGACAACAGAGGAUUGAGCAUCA: 0.204 ratio
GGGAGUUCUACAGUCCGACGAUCGAUAAGAAAAGCUUGUUGGAGACCCGCUUGCACAUCACUGGCAGAGACCUGAGGUGUCAAAUAGCUGAAACUUUCGGAUUUCAAGAAAAUUACAUCAAGAUCGUAAUAAAUAAGAAACAGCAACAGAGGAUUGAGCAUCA: 0.354 ratio
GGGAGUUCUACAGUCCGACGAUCCUCAGAGAUGUGGCAUAUCAAUAUGUGAAAAAGGGGGCUCGUAUAUUUGUGGAAGGGAAAGUGGACUAUGGCGAGUACAUGGAUAAAAAUAAUGUGAGGCGGCAAGCAACAACAAUCAUACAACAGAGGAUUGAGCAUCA: 0.405 ratio
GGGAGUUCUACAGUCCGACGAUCGUGUCCUGCUUUCAACUAUCACUGAGGAGGCAUCUCUACUGUUCUGUGAGCAUCAGGACUGUAGCGCUGUGUCACCACAUGAGAGUUCAGAAGCAGCCUUUCUGUGGAGGGUGGGAAUGACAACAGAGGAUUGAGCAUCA: 0.125 ratio
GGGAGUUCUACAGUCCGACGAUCUCUUUAAAAAAAAAAUUACCUUUUCUGACAGUGCUUUAUGGAGUAAAGAUCCACGUUCAAGCUCAAAGAGCAAAGGCUUUGCACGGAUCUGAUGAUGCUGAUGAAGAAAGAUUUCUGAGACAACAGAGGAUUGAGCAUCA: 0.181 ratio
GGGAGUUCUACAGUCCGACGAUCUUAAUCCCCUUUACUGCUCCACCACUGGUCAUGCUGAUAACAAAGUCUUAUAUCCCCGUCCUAGCUUUCACUCAGAUGGCUUAUGGAGCCGGUUUCCUAGCUUUCUUGGGAGGGAUCAGACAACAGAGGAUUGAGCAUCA: 0.349 ratio

Sample 3 — technique: protein binding microarray; form: double-stranded DNA, one strand shown; medium: in vitro; tested at: not given; relative to: not given; reading: higher = stronger binding; endpoint: E-score
Target: Histone acetyltransferase KAT6A, winged helix 1, GST fusion (KAT6A, Homo sapiens, UniProt Q92794, residues 1-85)
Notes: 8-mer, flanks averaged, mean of 2 arrays, mostly near background
Target sequence (chain): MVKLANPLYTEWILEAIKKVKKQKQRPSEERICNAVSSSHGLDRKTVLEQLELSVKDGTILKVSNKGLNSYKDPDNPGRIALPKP
AATCTTGT: -0.257
GCGGATCC: 0.316
CAATCTCA: -0.0917
GAACAGGA: -0.153
ATCATCTC: -0.196
GACACGAA: -0.0964
AGAGTCAG: -0.00687
ACATTTAA: -0.122
CACATGGA: -0.187
CGAGGGAC: 0.0477
AGTTAAAC: -0.163
CTCGGTGA: -0.0206
CCAAACTC: -0.108
CGAAAGCC: 0.102
AGTTCTCA: -0.174
AGTCGTCC: -0.0567
CAAGATCC: -0.0556

Sample 4 — technique: RNA Bind-n-Seq; form: RNA; medium: in vitro; tested at: 365 nM; relative to: no-protein control; reading: higher = stronger binding; endpoint: RBNS enrichment (R)
Target: RNA binding protein fox-1 homolog 2, RRM domain, GST-SBP tag (RBFOX2, Homo sapiens, UniProt O43251-10, residues 100-194)
Notes: natural RNA segment, single round, ends assumed
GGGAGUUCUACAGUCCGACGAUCUCUUUUAAAAGUACACAGAAUUUCCAUUCCUUAUAAAGGUGGCAAAAUUGGUUUGUCAUUUACCUCCAUGUGACUCCUUGCCCCAUAUAAAUGUCAGCAUAUGUAGCAAGUGGAAUUCUCGGGUGCCAA: 0.544
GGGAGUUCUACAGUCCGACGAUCAGAAAGUGCAUCAGUGAAGAGAUGCAAGACUUUCAACUGACUGGCAAAAAGCAAGCUUUAGCUUGUCUUAUAGGAUGCUUAGUUUGCCACUACACUUCAGACCAAUGGGAUGGAAUUCUCGGGUGCCAA: 0.712
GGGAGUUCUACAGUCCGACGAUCUUGUUUCGCUGACCCCGCUCUUGUGUGUUCCCUCUGGUGCCCACCCCAGGGCAUCUGCCAACUCCAGCAUCAACUCAACUCCCACCGCAUACCUGGUGCUGUCCCUGGGCUGGAAUUCUCGGGUGCCAA: 0.713
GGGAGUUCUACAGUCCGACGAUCUCACUCAUUUGCUAAGCAUUGGGAACAUUCUGUGUAUUUACCUUAAACAUAAAUAAAUUCCUGAGAGUGUCCUAUAUUUGGAUUGUGAUUUGUAGACUCAUGCUAACUUUUGGAAUUCUCGGGUGCCAA: 0.378
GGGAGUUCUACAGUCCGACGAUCGGAUCAGGGAACUAAGCAUUAUGUGAAUUCACCAGCAAGAUGUACAGAACGCCUGUGUUUACAUUGUUUUUAUGGAACUAGCAGAAUAAAACAUCUAUUUUAAAAAUGAAUGGAAUUCUCGGGUGCCAA: 0.74
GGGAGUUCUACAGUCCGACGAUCAAGGUCCACGCGAGCUAUCCCCGUGGCGUUACGAAUGCAGCCAGCGCCCGGCGUUUGUGCAGGGGUGUCGGGAACGAACGCAGCCAGCGGGCAUCUGUGCGUGCGAGGAGUGGAAUUCUCGGGUGCCAA: 0.512
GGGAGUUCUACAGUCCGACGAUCUUUAUUUUACACCACCUUAAAAAUUAUAUGAGAACAAGGUACAUGCAUUAUGUGUCACAUUACUGGGCAAACUGUUCAAAUAUUUUUUUUAAACCUCCCUGUAUAGAAAAUGGAAUUCUCGGGUGCCAA: 0.816
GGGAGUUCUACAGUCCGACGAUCUUCAAAACUAAAAAUCAGCCACAGUUGAAUGCUACAAAAGACAUUUAAAGAUUUUAUUUAAACUGUUAAGAAUCAAGCCGCGAACAAGCCCACUCCUUCAUGAACAAUUCUGGAAUUCUCGGGUGCCAA: 0.696
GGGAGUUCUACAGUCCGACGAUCCCAAAACUUUGACCUGAAUCAUGUGGAUUUGUCCCAAGAUUAUGCUAGAUGCACCAAGCAUGGCCCAAAUUGGUUCUUUUUUAAAUCCCAUGGGGGAAGUGCAGGCUCCUUGGAAUUCUCGGGUGCCAA: 2.45

For quick reference, copied from above (sample 1):
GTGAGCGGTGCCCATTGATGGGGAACATTTTTCATACTTTATGCAACAATTTGTTATGAGATACCAAAGCTGAAGAATGAGGTGTTTGACCATATTCAAAGACCACATGTGTCAGGACTGTTTACATTTCTGAAAGTACTTAGGGCAATCACAGGATGAAAGCAGTGTGTACTAAATCCTCTGTCCACAGAATTCTGCAAATATTATGTGTCTTGAGGGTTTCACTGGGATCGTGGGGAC: 0.37 ratio
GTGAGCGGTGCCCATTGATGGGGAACGTTGCCATAGCTCTGCTGAATGATCATTTGTTGGATTCCATGAATCTCAAAAAAATGAAAGGATCTCTCTTTAGGTGTGTCTGGGGCTATCAAAGTAAACAAGTCAGATGAATTATTGATAGGCTTTGGATCAATGAAATGCCACTGGAATGACAAATGATAAGCACAGTAAAACTGTCACAATCCTTATTCCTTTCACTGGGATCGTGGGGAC: 0.416 ratio
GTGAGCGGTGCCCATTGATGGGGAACATCTTCCCCCTCTTCCTTGCCCCACCAGCTCACCTACGGGGGTTATTTGCACAAAGGAAAATAAATAAAGCCGGCATTCGTTAACGCAGTTCTGGCGCAAACTGCTGTTTGCTCTGGATGAATCATGGTCCTTTGGCGACGCCAGGCTCCGGGAGAGCAAAGCACCGTGTCAGGGCCATGATCCGGGGTGGCCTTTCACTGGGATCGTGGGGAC: 0.381 ratio
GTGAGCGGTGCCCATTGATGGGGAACTAAGCAAATACCATGACATAAATTTCTTCTGTTGACCACACTGGCTGTTTAACACAGCTCTAGTGACTTCATGGGGCTGAATGAGTTTTCGATGTTTACTTAGCTGGTGGGCCTAATCAGTGTCATCATCTTTTTCATATGACCAGTGAACAGTCCATAGCTTGCTACTCAAAGCGTGATCCACAGGCCATCCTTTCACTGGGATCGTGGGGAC: 0.502 ratio
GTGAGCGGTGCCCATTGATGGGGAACAAAACCAAAAACCAAAGCTTATTCACTCTTAATCTAAGTAAGCAAGTTTGGATAGACCCCCACTAAGTATGAGCATAGTCTTTAATGCTACAATGTAATCTAATATACTTATGTCATATAAACTACTTTATTATTCTGGCAAGTTGGGAACCATTGATATAGGATTTGTGAGACTCAATAATAATAGACTTTTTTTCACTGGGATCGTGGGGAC: 0.0167 ratio
